Results gathered from unrelated publications.
Parts stem from different laboratories: compare values within a part only.
Chain of UniProt Q07912 (whole entry, looked up): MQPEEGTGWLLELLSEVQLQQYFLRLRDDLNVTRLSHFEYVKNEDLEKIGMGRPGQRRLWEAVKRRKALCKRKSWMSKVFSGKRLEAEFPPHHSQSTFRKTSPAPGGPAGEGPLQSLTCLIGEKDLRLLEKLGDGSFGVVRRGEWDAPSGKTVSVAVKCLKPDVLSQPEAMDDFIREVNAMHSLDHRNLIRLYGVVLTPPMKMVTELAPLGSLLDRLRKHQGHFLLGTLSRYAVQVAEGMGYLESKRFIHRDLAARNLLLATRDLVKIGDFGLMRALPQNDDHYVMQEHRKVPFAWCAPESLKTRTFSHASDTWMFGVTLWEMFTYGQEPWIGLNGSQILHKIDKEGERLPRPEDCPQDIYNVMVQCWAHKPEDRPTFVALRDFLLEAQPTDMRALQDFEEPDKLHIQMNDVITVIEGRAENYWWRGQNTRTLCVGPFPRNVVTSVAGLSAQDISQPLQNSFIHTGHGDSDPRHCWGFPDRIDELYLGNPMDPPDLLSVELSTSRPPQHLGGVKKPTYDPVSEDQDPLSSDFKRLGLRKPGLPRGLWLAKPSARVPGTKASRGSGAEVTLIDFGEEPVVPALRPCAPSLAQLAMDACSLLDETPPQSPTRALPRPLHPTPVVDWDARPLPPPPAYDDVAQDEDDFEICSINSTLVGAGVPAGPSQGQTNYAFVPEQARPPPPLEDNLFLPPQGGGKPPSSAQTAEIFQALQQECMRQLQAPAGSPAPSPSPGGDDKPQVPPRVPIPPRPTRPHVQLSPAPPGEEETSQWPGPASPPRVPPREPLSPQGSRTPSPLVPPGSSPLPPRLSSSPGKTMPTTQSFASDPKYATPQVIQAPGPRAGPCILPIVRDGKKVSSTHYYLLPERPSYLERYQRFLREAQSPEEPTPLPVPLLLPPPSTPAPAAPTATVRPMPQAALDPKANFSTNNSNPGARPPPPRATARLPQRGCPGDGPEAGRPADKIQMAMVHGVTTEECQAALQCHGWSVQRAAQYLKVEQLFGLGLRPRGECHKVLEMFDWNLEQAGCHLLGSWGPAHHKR
Chain of UniProt Q15418 (whole entry, looked up): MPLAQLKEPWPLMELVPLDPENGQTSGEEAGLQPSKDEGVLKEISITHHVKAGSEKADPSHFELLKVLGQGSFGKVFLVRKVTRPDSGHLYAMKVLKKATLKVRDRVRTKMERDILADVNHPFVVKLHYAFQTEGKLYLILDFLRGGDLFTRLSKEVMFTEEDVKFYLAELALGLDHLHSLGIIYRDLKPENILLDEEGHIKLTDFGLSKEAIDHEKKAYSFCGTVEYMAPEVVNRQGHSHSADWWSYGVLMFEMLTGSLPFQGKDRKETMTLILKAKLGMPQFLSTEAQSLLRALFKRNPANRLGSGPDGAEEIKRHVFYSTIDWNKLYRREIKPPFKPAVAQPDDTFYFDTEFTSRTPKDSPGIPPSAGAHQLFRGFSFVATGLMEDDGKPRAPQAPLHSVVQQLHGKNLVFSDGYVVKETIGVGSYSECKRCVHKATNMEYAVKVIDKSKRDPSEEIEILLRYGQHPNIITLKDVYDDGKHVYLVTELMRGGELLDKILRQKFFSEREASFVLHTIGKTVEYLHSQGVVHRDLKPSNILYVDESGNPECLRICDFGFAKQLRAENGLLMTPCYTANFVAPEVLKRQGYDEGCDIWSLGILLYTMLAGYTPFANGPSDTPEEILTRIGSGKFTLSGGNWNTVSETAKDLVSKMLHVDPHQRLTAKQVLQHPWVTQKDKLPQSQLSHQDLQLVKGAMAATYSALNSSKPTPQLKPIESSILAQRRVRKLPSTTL
Chain of UniProt Q08881 (whole entry, looked up): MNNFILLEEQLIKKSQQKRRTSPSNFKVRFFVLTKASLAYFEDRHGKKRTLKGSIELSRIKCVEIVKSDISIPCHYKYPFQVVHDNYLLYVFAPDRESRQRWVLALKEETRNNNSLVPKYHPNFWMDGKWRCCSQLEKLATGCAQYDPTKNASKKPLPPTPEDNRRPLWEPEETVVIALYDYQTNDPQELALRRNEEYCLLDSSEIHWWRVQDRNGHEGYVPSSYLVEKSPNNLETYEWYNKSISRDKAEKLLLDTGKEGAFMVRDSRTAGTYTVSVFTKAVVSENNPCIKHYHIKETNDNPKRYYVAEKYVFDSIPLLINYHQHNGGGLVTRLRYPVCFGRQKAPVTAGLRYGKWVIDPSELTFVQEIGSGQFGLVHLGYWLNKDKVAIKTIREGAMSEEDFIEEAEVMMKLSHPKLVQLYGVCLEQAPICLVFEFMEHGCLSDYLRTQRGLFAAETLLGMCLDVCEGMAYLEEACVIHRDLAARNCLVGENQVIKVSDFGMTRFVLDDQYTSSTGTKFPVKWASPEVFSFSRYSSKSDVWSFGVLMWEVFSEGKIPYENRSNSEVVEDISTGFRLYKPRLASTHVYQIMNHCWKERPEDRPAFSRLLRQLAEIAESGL
Chain of UniProt Q07002 (whole entry, looked up): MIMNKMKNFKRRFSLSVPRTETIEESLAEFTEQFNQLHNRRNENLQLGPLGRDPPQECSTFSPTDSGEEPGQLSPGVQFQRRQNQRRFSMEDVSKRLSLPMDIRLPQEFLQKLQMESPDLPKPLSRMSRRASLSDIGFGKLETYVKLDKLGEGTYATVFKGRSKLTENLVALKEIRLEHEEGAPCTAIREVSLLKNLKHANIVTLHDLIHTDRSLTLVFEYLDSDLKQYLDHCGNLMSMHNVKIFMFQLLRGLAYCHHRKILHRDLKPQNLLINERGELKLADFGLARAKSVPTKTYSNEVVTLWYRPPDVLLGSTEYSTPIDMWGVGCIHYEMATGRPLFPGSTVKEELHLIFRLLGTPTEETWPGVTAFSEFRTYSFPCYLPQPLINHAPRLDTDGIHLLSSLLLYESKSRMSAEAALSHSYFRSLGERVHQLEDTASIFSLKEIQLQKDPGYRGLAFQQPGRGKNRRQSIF
Chain of UniProt Q96NX5 (whole entry, looked up): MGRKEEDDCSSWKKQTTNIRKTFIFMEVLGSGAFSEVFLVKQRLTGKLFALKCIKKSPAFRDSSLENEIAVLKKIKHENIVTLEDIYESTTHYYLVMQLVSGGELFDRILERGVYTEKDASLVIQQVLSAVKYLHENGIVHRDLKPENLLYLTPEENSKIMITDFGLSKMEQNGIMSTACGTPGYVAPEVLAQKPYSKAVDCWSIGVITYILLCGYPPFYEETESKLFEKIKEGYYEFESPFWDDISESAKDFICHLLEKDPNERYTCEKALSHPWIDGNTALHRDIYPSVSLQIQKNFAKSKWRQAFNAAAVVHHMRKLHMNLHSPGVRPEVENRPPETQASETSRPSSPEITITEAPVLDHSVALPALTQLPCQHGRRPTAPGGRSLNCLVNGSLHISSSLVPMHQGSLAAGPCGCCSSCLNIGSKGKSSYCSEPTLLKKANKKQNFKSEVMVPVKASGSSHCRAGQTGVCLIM
Chain of UniProt Q9Y6E0 (whole entry, looked up): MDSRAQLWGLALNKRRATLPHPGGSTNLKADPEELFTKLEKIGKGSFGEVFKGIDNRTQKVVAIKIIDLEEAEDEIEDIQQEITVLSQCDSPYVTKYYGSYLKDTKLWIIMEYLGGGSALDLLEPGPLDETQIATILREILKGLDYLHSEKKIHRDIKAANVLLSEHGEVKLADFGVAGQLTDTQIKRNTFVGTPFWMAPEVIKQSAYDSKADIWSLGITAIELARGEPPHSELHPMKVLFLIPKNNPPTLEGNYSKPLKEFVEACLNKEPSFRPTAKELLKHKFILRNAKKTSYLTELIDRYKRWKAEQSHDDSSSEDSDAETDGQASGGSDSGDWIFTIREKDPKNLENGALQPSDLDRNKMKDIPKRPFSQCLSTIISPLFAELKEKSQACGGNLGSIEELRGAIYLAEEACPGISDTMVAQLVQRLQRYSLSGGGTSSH

Block 1 — effect on: enzyme activity; concentration: 5 µM
Compound: O=C(Nc1cnn(-c2csc(C(=O)NC3COC3)c2)c1)Nc1ccccc1Cl
target | assay | scale | remaining activity
Serine/threonine-protein kinase 26 (STK26, Homo sapiens, UniProt Q9P289) | – | reference: untreated control | 94.1%
Serine/threonine-protein kinase SIK2 (SIK2, Homo sapiens, UniProt Q9H0K1) | – | reference: untreated control | 96.8%
Protein kinase C beta type, isoform beta-I (PRKCB, Homo sapiens, UniProt P05771) | – | reference: untreated control | 101%
Protein kinase C eta type (PRKCH, Homo sapiens, UniProt P24723) | – | reference: untreated control | 100%
High affinity nerve growth factor receptor (NTRK1, Homo sapiens, UniProt P04629) | – | reference: untreated control | 95.4%
Mitogen-activated protein kinase kinase kinase kinase 3 (MAP4K3, Homo sapiens, UniProt Q8IVH8) | – | reference: untreated control | 96.2%
Serine/threonine-protein kinase ICK (CILK1, Homo sapiens, UniProt Q9UPZ9) | inhibitor | – | 110%
Serine/threonine-protein kinase SIK1 (SIK1, Homo sapiens, UniProt P57059) | – | reference: untreated control | 101%
Serine/threonine-protein kinase 24 (STK24, Homo sapiens, UniProt Q9Y6E0) | – | reference: untreated control | 110%
Serine/threonine-protein kinase SIK3 (SIK3, Homo sapiens, UniProt Q9Y2K2) | inhibitor | – | 92.4%
Tyrosine-protein kinase ABL1 (ABL1, Homo sapiens, UniProt P00519) | – | reference: untreated control | 82.4%
Activated CDC42 kinase 1 (TNK2, Homo sapiens, UniProt Q07912) | – | reference: untreated control | 85.4%
Mitogen-activated protein kinase kinase kinase 5 (MAP3K5, Homo sapiens, UniProt Q99683) | – | reference: untreated control | 87.1%

Block 2 — effect on: enzyme activity; action: inhibitor; concentration: 0.5 µM; reference: control
Target: MAP kinase-interacting serine/threonine-protein kinase 1 (MKNK1, Homo sapiens, UniProt Q9BUB5)
Chain of UniProt Q9BUB5 (whole entry, looked up): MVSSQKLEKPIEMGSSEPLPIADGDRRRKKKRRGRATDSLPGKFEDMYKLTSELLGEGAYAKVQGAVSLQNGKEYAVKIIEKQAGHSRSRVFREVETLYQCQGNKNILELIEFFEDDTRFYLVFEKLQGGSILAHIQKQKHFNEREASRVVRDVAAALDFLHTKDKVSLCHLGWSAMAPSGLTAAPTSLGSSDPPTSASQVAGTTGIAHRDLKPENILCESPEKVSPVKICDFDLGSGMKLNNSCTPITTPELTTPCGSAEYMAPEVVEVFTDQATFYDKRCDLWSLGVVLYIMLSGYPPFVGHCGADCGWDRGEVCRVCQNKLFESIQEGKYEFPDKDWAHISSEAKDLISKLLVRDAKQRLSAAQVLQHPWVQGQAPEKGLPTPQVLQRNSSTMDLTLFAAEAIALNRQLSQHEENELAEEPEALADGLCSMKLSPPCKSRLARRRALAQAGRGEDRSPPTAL
SMILES | remaining activity
Cc1ccc(NC2=CC(=O)c3sc(C)nc3C2=O)cc1 | 117%
Nc1nc(Nc2ccc(S(N)(=O)=O)cc2)nn1C(=O)c1c(F)cccc1F | 90.9%
O=C1NC(=O)C(c2c[nH]c3ccccc23)=C1c1c[nH]c2ccccc12 | 115%
Oc1ccc(Nc2nc(-c3ccc(Cl)cc3)cs2)cc1 | 98.9%
NC(=O)c1ccc(N(C(N)=O)c2c(F)cccc2F)nc1-c1ccc(F)cc1F | 91.4%
O=S(=O)(NCCNC/C=C/c1ccc(Br)cc1)c1cccc2cnccc12 | 93.4%
Nc1nccc(-c2c(-c3ccc(F)cc3)ncn2C2CCNCC2)n1 | 99%
CC(=O)c1ccc(N2CCOCC2)cc1O | 102%
Fc1ccc(-c2nc3n(c2-c2ccncc2)CCS3)cc1 | 102%
CCc1[nH]c(-c2ccc(OC)cc2)nc1-c1ccncc1 | 115%
Nc1ncnc2c1cnn2-c1ccccc1 | 81.4%
CC#CC(=O)Nc1cc2c(Nc3ccc(F)c(Cl)c3)ncnc2cn1 | 89.5%
COc1ccc(S(=O)(=O)N(CCO)c2ccccc2CN(C)CC=Cc2ccc(Cl)cc2)cc1 | 103%
Cc1cc(Nc2nc(-c3ccccc3)nc3ccccc23)n[nH]1 | 93.5%
N#CC(=C(N)Sc1ccc(N)cc1)c1ccccc1C(F)(F)F | 103%
CC[n+]1c(/C=C/N(C)c2ccccc2)n(-c2ccccc2)c2ccc(-c3nc4ccccc4s3)cc21 | 102%
CCCC(=O)Oc1ccc2[nH]c(C(=O)c3cc4ccccc4[nH]3)cc2c1 | 101%
CSc1nc(-c2ccnc(N[C@@H](C)c3ccccc3)c2)c(-c2ccc(F)cc2)[nH]1 (racemic) | 97.1%
CC(C)(C)n1nc(Cc2cccc3ccccc23)c2c(N)ncnc21 | 89.8%
Cc1cncc2cccc(S(=O)(=O)N3CCCN(C(=O)CN)C[C@@H]3C)c12 | 90.5%
O=C1Cc2c([nH]c3ccc([N+](=O)[O-])cc23)-c2ccccc2N1 | 76.9%

Block 3 — effect on: enzyme activity; action: inhibitor; concentration: 10 µM
Target: Calcium/calmodulin-dependent protein kinase type II subunit alpha (CAMK2A, Homo sapiens, UniProt Q9UQM7)
Chain of UniProt Q9UQM7 (whole entry, looked up): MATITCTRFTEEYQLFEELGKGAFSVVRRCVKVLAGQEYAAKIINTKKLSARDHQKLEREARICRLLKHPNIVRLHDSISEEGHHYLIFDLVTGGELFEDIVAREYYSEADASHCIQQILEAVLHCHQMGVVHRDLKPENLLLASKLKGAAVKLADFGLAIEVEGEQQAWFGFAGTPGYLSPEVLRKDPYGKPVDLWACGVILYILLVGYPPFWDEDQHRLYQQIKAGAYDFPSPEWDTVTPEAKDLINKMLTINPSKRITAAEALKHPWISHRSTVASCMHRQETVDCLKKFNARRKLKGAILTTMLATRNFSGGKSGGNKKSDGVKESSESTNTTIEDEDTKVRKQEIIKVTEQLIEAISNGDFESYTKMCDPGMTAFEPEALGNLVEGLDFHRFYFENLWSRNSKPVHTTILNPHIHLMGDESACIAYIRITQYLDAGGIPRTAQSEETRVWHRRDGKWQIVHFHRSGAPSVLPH
Compound | inhibition
O=C(O)c1ccc(O)c(O)c1O | -20%
O=c1c(O[C@@H]2O[C@H](CO)[C@@H](O)[C@H](O)[C@H]2O[C@@H]2OC[C@@H](O)[C@H](O)[C@H]2O)c(-c2ccc(O)cc2)oc2cc(O)cc(O)c12 | -47%
NC(=O)C1=CN([C@@H]2O[C@H](COP(=O)(O)OP(=O)(O)OC[C@H]3O[C@@H](n4cnc5c(N)ncnc54)[C@H](O)[C@@H]3O)[C@@H](O)[C@H]2O)C=CC1 | 30%
CO[C@@H]1C=C2[C@@H]3CC(C)(C)CC[C@]3(CO)[C@H](O)C[C@@]2(C)[C@]2(C)CC[C@H]3[C@](C)(CO)[C@@H](O[C@@H]4O[C@H](C)[C@H](O)[C@H](O[C@@H]5O[C@H](CO)[C@@H](O)[C@H](O)[C@H]5O)[C@H]4O)CC[C@]3(C)[C@@H]12 | -25%
CCOC(=O)CC(O)(CC(=O)OCC)C(=O)OCC | -1%
COc1cc(CCO[C@@H]2O[C@H](CO[C@@H]3O[C@H](CO)[C@@H](O)[C@H](O)[C@H]3O)[C@@H](OC(=O)/C=C/c3ccc(O)c(O)c3)[C@H](O[C@@H]3O[C@@H](C)[C@H](O)[C@@H](O)[C@H]3O)[C@H]2O)ccc1O | -1%
CCC[C@@]1(CCc2ccccc2)CC(O)=C([C@H](CC)c2cccc(NS(=O)(=O)c3ccc(C(F)(F)F)cn3)c2)C(=O)O1 | 7%
N[C@H](CO)Cc1cnc[nH]1 | -21%
C#C[C@]1(O)CC[C@H]2[C@@H]3CCc4cc(OC)ccc4[C@H]3CC[C@@]21C | -6%
CCOc1ccccc1OCCN[C@H](C)Cc1ccc(OC)c(S(N)(=O)=O)c1 | -4%
C=C(C)[C@@H](CC=C(C)C)C[C@@]12C[C@@H](CC=C(C)C)C(C)(C)[C@@](CC=C(C)C)(C(=O)C(=C(O)c3ccc(O)c(O)c3)C1=O)C2=O | -42%
C[C@@H]1O[C@@H](Oc2cc(O)c3c(=O)c(O)c(-c4ccc(O)cc4)oc3c2)[C@H](O)[C@H](O)[C@H]1O | -85%
CC(C)=C1CC[C@@H](C)CC1=O | -3%
CCOC(=O)[C@H](CCc1ccccc1)N[C@H]1CS[C@H](c2cccs2)CN(CC(=O)O)C1=O | -14%
C=C[C@]1(C)C[C@@H](OC(=O)CO)[C@]2(C)[C@H](C)CC[C@]3(CCC(=O)[C@H]32)[C@@H](C)[C@@H]1O | 12%

Block 4 — concentration: 1 µM
SMILES: CS(=O)(=O)c1cc(C2(NC(=O)c3cncc4c3cnn4-c3ccc(F)cc3)CC2)ccn1
target | assay | remaining binding [%]
Casein kinase I isoform alpha-like (CSNK1A1L, Homo sapiens, UniProt Q8N752) | cell-free assay, competition with immobilised ligand | 100
Tyrosine-protein kinase ABL1, phosphorylated (ABL1, Homo sapiens, UniProt P00519, Q252H) | cell-free assay, competition with immobilised ligand | 100
Serine/threonine-protein kinase Nek6 (NEK6, Homo sapiens, UniProt Q9HC98) | cell-free assay, competition with immobilised ligand | 100
Proto-oncogene tyrosine-protein kinase receptor Ret (RET, Homo sapiens, UniProt P07949, V804M) | cell-free assay, competition with immobilised ligand | 97
Tyrosine-protein kinase FRK (FRK, Homo sapiens, UniProt P42685) | cell-free assay, competition with immobilised ligand | 58
Epidermal growth factor receptor (EGFR, Homo sapiens, UniProt P00533, L861Q) | cell-free assay, competition with immobilised ligand | 100
Serine/threonine-protein kinase B-raf (BRAF, Homo sapiens, UniProt P15056, V600E) | cell-free assay, competition with immobilised ligand | 94
Epidermal growth factor receptor (EGFR, Homo sapiens, UniProt P00533, L858R) | cell-free assay, competition with immobilised ligand | 100
Phosphatidylinositol 4-phosphate 5-kinase type-1 alpha (PIP5K1A, Homo sapiens, UniProt Q99755) | cell-free assay, competition with immobilised ligand | 100
Tyrosine-protein kinase BTK (BTK, Homo sapiens, UniProt Q06187) | cell-free assay, competition with immobilised ligand | 97
Receptor tyrosine-protein kinase erbB-4 (ERBB4, Homo sapiens, UniProt Q15303) | cell-free assay, competition with immobilised ligand | 100
Leucine-rich repeat serine/threonine-protein kinase 2 (LRRK2, Homo sapiens, UniProt Q5S007, G2019S) | cell-free assay, competition with immobilised ligand | 100
Tyrosine-protein kinase ABL1, phosphorylated (ABL1, Homo sapiens, UniProt P00519, H396P) | cell-free assay, competition with immobilised ligand | 100
Serine/threonine-protein kinase MRCK gamma (CDC42BPG, Homo sapiens, UniProt Q6DT37) | competition binding | 100
1-phosphatidylinositol 3-phosphate 5-kinase (PIKFYVE, Homo sapiens, UniProt Q9Y2I7) | cell-free assay, competition with immobilised ligand | 79
MAP kinase-interacting serine/threonine-protein kinase 2 (MKNK2, Homo sapiens, UniProt Q9HBH9) | cell-free assay, competition with immobilised ligand | 100
Tyrosine-protein kinase ITK/TSK (ITK, Homo sapiens, UniProt Q08881) | cell-free assay, competition with immobilised ligand | 89
Dual specificity mitogen-activated protein kinase kinase 3 (MAP2K3, Homo sapiens, UniProt P46734) | cell-free assay, competition with immobilised ligand | 88
Epidermal growth factor receptor (EGFR, Homo sapiens, UniProt P00533) | cell-free assay, competition with immobilised ligand | 100
BDNF/NT-3 growth factors receptor (NTRK2, Homo sapiens, UniProt Q16620) | cell-free assay, competition with immobilised ligand | 91
Calcium/calmodulin-dependent protein kinase type 1G (CAMK1G, Homo sapiens, UniProt Q96NX5) | cell-free assay, competition with immobilised ligand | 100
Ribosomal protein S6 kinase alpha-1, N-terminal kinase domain (RPS6KA1, Homo sapiens, UniProt Q15418) | cell-free assay, competition with immobilised ligand | 77
Cyclin-dependent kinase 18 (CDK18, Homo sapiens, UniProt Q07002) | cell-free assay, competition with immobilised ligand | 100
Misshapen-like kinase 1 (MINK1, Homo sapiens, UniProt Q8N4C8) | cell-free assay, competition with immobilised ligand | 100
Dual specificity tyrosine-phosphorylation-regulated kinase 2 (DYRK2, Homo sapiens, UniProt Q92630) | cell-free assay, competition with immobilised ligand | 95
